Assay results from different studies.
Protocols differ between the studies behind these lines. “And” joins repeats or separate records; there may be more than shown. ± gives the spread as reported.
UniProt Q9Y478, sequence (whole entry, looked up): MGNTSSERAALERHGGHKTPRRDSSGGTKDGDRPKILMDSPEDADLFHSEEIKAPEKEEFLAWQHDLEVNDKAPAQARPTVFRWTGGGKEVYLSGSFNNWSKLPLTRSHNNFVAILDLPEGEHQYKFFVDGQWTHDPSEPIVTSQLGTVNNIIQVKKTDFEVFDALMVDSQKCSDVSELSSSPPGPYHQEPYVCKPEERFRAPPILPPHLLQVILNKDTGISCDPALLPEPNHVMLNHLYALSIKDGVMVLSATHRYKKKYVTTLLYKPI
UniProt P54619, sequence (whole entry, looked up): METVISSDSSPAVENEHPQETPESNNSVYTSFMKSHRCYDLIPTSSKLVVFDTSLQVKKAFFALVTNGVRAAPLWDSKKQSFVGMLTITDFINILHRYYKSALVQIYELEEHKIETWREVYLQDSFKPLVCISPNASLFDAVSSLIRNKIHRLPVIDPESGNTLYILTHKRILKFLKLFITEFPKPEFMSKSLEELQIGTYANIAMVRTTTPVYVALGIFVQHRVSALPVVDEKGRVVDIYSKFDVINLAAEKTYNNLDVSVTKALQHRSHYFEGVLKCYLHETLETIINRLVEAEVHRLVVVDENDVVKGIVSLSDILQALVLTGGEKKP
UniProt Q13131, sequence (whole entry, looked up): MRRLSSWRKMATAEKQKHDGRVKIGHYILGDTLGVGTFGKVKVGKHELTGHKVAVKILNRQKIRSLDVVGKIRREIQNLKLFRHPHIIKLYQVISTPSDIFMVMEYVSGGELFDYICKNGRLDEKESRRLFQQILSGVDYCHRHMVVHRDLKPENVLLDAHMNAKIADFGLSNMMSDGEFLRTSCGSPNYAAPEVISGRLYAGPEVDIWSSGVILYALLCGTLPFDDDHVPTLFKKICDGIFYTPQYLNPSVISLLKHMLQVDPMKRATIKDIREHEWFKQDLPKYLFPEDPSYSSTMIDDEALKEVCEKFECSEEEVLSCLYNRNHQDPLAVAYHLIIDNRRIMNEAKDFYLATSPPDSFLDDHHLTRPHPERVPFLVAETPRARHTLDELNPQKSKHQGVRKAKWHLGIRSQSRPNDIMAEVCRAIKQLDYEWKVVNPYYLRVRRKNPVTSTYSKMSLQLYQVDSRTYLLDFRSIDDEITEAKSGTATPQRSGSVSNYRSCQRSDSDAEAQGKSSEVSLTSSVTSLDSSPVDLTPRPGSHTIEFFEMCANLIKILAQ

Compound	target or system	assay	system	setting	how to read	measurement	result
COC1CN([C@H]2CC[C@H]([C@@]3(C)Oc4c(Cl)cc(C(=O)NCc5c(SC)cc(C)[nH]c5=O)c(C)c4O3)CC2)C1	–	RNA-seq, item: CERS4 mouse homolog	mouse, HT-1376 xenograft, whole blood	dose not given	reference: vehicle	log2 fold change	1.01
C=CC(=O)Nc1cccc(Cn2ncc3cnc(Nc4cnn(CCOC)c4)nc32)c1	PIK3C2G human	binding, KINOMEscan	–	100 nM	lower = stronger binding	percent of control	72%
Cc1nn(-c2cccc(N)c2)c(=O)c2cnc(Nc3ccc(N4CCNCC4)cc3)nc12	AMP-activated protein kinase (AMPK) alpha-1/beta-1/gamma-1 (PRKAG1/PRKAA1/PRKAB1, Homo sapiens, UniProt P54619+Q13131+Q9Y478)	enzyme activity, inhibitor	–	–	–	IC50	1.52 µM
CN1CCCNC(=O)c2cccc(c2)C(=O)NCCCN(C)CCCNc2cccc3c2C(=O)c2cccc(c2C3=O)NCCC1	SAS	RNA-Seq, item: HSPA5 mRNA	–	1 µM, 6 h	reference: untreated cells	log2 fold change	-0.833
Nc1ncc(-c2cc(-c3cnn(CC(F)(F)F)c3)ncc2F)nc1C(=O)NC1CNCC(F)C1 (stereo not drawn)	MEK6	KINOMEscan	–	1 µM	reference: DMSO control	remaining binding	83%
CNS(=O)(=O)Nc1nccc(Cc2c(C)c3ccc(Oc4ncccc4F)cc3oc2=O)c1F	NCI-H28	cell viability	–	7 days	–	IC50	> 1 µM
CC(C)c1ccc(N(C)c2ccc3c(c2)OCC[C@H]3CNc2cnccc2C(=O)O)cc1	DMS-53	cell growth or viability, ATP luminescence	–	7 days	–	IC50	≥ 10 µM
CCN(CC)CC(=O)Nc1cccc(-n2cc(-c3ccc4ccc(-c5cn(-c6cccc(NC(=O)CN(CC)CC)c6)nn5)cc4c3)nn2)c1	RCC4	PCR angiogenesis array, item: IL8	–	5 x IC50, 6 h, normoxia	reference: untreated	fold regulation	-3.31
CO[C@@H]1[C@@H](OC(N)=O)[C@@H](O)[C@H](Oc2ccc3c(O)c(NC(=O)c4ccc(O)c(CC=C(C)C)c4)c(=O)oc3c2C)OC1(C)C	DLD-1 parental	–	–	200 µM	reference: untreated	colony survival	0.12%
C=C(NC(=O)c1csc(-c2nc3c(cc2O)-c2nc(cs2)C(=O)NC(C(C)O)C(=O)NC(=C(C)OC)c2nc(cs2)C(=O)NC2c4nc(cs4)C(=O)NC(COC(=O)c4c5c6c(cccc6n4O)COC(=O)C(OC4CC(C)(O)C(N(C)C)C(C)O4)C2OC5)c2nc-3cs2)n1)C(N)=O (stereo not drawn)	–	–	male cynomolgus monkey, plasma	intravenous, 1 mg/kg, single dose, infusion	–	half-life	6.8 h
COc1ccccc1-c1ccncc1C(=O)Nc1nnc(OCc2ccc(Cl)cc2)s1	MDA-MB-436	–	–	0.75 µM	–	colony count	13 and 11 and 14 and 12
Cc1nc(NCCNc2ncc(C(=O)NC3=NN(c4ccc(Cl)c(Cl)c4)CC3)c(C)n2)ncc1C(=O)NC1=NN(c2ccc(Cl)c(Cl)c2)CC1	K562	cell growth or viability, ATP luminescence	–	72 h	–	EC50	> 5 µM
Cc1ncsc1-c1ccc(C(C)NC(=O)C2CC(O)CN2C(=O)C(NC(=O)CCCCCCCCCCN2CCCC(Nc3ncc(Cl)c(Nc4ccccc4S(=O)(=O)C(C)C)n3)C2)C(C)(C)C)cc1 (stereo not drawn)	22Rv1	RNA-seq, item: LRFN2 mRNA	–	concentration not given	reference: DMSO	log2 fold change	-3.29
Cn1ncc2cc(-c3cncc(Cl)c3N3CCC4(CCNC4=O)CC3)ccc21	LS174T	gene expression, microarray, item: CXCR4 mRNA	–	concentration not given, 4 h	reference: untreated cells	log2 fold change	1.23
CNC(NN=Cc1ccc([N+](=O)[O-])o1)=[S+][Au-][Cl]	CAKI-1	annexin V/PI flow cytometry	–	15 µM, 72 h	–	cell fraction ANV−/PI+	1.8 ± 0.5%

A few entries again:
Compound	target or system	assay	system	setting	how to read	measurement	result
Cc1nc(NCCNc2ncc(C(=O)NC3=NN(c4ccc(Cl)c(Cl)c4)CC3)c(C)n2)ncc1C(=O)NC1=NN(c2ccc(Cl)c(Cl)c2)CC1	K562	cell growth or viability, ATP luminescence	–	72 h	–	EC50	> 5 µM
Nc1ncc(-c2cc(-c3cnn(CC(F)(F)F)c3)ncc2F)nc1C(=O)NC1CNCC(F)C1 (stereo not drawn)	MEK6	KINOMEscan	–	1 µM	reference: DMSO control	remaining binding	83%
